Measured values collected from several papers.
Lines come from different studies, so protocols differ. ± marks the error that the study gave.
TDP1: Tyrosyl-DNA phosphodiesterase 1 (TDP1, Homo sapiens, UniProt Q9NUW8)
Chain of UniProt Q9NUW8 (whole entry, looked up): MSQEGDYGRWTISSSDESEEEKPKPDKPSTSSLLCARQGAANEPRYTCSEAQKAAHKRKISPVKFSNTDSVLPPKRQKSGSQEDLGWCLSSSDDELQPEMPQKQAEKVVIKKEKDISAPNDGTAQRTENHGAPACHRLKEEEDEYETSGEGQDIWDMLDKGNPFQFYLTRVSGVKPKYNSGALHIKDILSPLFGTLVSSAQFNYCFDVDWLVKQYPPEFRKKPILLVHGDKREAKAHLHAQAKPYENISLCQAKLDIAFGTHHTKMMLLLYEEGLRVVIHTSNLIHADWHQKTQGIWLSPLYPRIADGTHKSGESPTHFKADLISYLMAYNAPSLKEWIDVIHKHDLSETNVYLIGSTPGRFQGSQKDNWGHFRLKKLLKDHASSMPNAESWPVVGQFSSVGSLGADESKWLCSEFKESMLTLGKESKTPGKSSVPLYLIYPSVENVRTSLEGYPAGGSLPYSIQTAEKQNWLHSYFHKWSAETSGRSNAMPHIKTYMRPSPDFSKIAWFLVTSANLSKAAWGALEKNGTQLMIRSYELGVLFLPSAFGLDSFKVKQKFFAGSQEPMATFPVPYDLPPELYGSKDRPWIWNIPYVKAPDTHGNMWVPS

Cc1c(Cl)cccc1Nc1ccccc1C(=O)[Se]CC(=O)Nc1cccc(C(F)(F)F)c1 — GI50 (NCI60 melanoma subpanel; cell growth, inhibitor; five-dose): 1.55 µM
Cc1cc(=O)oc2cc(OCCCCCCSC#N)ccc12 — GI50 (WiDr, multidrug-resistant; sulforhodamine B): 3.1 ± 0.3 µM
COc1cc(O)ccc1-c1c[nH]c2ncc(-c3cncc(C(=O)N(C)C)c3)cc12 — GI50 (Ba/F3 BCR-ABL wild type; cell proliferation; 72 h): 0.138 ± 0.0099 µM
O=C1NC(=O)/C(=C/c2ccc(C=NOCc3ccc4nc(-c5ccccc5)c(Nc5ccc(C(=O)O)cc5)n4c3)cc2)N1 — inhibition (TDP1; enzyme activity, inhibitor; 100 µM, unpurified compound): 103%
COc1ccccc1-c1c[nH]c2ncc(-c3cncc(C(=O)N(C)C)c3)cc12 — GI50 (Ba/F3 BCR-ABL wild type; cell proliferation; 72 h): 0.0601 ± 0.008 µM
O=C(C[Se]C(=O)c1cc2ccccc2o1)Nc1cccc(C(F)(F)F)c1 — GI50 (HCC 2998; cell growth or viability, SRB): 0.6 µM
C=CCn1c(C)c(C=NOCc2ccc3nc(-c4ccccc4)c(Nc4ccc(C(=O)O)cc4)n3c2)c2ccccc21 — inhibition (TDP1; enzyme activity, inhibitor; 100 µM, unpurified compound): 36.9%
CCN(C(=O)c1cc(F)ccc1Oc1nncnc1N1CCC2(C1)CN([C@H](CCCN(C)CCOC)C(C)C)C2)C(C)C — GI50 (COLO-678; cell growth or viability; 7 days): > 10 µM
COc1ccc(OC(C)=O)cc1-c1c[nH]c2ncc(-c3cncc(C(=O)N(C)C)c3)cc12 — GI50 (Ba/F3 BCR-ABL wild type; cell proliferation; 72 h): 0.0179 ± 0.0021 µM
N#C[Se]CCCCCCOc1ccc2c(-c3ccccc3)cc(=O)oc2c1 — GI50 (WiDr, multidrug-resistant; sulforhodamine B): 8.9 ± 3.3 µM
COc1ccc2c(c1)c(CC(=O)[Se]CC(=O)Nc1cccc(C(F)(F)F)c1)c(C)n2C(=O)c1ccc(Cl)cc1 — GI50 (NCI60 melanoma subpanel; cell growth, inhibitor; five-dose): 1.9 µM

For quick reference, copied from above:
CCN(C(=O)c1cc(F)ccc1Oc1nncnc1N1CCC2(C1)CN([C@H](CCCN(C)CCOC)C(C)C)C2)C(C)C — GI50 (COLO-678; cell growth or viability; 7 days): > 10 µM
